# Values quoted from earlier work as cited in several papers.
# Each line is one published result; not all experiments were run side by side. Numbers after ± are the reported error.
# blaNDM-1: Metallo-beta-lactamase type 2 (blaNDM-1, Klebsiella pneumoniae, UniProt C7C422)
# UniProt C7C422, sequence (whole entry, looked up): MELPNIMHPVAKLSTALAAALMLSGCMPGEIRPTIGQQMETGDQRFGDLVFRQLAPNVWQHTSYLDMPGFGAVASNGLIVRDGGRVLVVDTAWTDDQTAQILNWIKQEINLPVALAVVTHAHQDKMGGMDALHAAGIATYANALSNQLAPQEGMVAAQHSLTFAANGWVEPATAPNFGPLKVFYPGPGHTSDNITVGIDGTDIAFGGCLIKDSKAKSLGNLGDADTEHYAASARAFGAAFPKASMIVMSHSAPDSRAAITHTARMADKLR
# UniProt Q8IM16, sequence (whole entry, looked up): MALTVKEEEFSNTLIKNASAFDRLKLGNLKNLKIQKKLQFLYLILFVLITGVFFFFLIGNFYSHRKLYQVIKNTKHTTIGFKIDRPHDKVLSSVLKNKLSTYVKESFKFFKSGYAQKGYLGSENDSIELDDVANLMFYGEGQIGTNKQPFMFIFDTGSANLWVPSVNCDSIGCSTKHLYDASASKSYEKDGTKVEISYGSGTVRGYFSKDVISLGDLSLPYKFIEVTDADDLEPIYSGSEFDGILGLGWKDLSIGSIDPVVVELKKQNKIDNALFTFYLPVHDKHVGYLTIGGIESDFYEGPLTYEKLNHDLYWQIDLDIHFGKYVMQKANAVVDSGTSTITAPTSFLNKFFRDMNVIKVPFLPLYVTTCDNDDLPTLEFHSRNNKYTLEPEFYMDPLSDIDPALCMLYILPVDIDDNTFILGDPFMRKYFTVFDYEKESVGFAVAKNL
# UniProt O15379, sequence (whole entry, looked up): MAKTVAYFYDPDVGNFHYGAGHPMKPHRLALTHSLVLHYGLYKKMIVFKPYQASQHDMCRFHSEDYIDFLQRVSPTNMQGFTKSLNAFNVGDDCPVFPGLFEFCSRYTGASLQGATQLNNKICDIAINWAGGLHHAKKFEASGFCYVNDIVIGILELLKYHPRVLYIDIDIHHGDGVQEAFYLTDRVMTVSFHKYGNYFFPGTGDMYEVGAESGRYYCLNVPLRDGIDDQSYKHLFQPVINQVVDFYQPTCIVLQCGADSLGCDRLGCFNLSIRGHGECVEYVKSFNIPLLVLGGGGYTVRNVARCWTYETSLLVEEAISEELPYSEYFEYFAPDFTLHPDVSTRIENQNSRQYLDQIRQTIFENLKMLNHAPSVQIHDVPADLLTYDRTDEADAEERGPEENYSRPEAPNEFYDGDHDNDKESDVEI
# UniProt P30803, sequence (whole entry, looked up): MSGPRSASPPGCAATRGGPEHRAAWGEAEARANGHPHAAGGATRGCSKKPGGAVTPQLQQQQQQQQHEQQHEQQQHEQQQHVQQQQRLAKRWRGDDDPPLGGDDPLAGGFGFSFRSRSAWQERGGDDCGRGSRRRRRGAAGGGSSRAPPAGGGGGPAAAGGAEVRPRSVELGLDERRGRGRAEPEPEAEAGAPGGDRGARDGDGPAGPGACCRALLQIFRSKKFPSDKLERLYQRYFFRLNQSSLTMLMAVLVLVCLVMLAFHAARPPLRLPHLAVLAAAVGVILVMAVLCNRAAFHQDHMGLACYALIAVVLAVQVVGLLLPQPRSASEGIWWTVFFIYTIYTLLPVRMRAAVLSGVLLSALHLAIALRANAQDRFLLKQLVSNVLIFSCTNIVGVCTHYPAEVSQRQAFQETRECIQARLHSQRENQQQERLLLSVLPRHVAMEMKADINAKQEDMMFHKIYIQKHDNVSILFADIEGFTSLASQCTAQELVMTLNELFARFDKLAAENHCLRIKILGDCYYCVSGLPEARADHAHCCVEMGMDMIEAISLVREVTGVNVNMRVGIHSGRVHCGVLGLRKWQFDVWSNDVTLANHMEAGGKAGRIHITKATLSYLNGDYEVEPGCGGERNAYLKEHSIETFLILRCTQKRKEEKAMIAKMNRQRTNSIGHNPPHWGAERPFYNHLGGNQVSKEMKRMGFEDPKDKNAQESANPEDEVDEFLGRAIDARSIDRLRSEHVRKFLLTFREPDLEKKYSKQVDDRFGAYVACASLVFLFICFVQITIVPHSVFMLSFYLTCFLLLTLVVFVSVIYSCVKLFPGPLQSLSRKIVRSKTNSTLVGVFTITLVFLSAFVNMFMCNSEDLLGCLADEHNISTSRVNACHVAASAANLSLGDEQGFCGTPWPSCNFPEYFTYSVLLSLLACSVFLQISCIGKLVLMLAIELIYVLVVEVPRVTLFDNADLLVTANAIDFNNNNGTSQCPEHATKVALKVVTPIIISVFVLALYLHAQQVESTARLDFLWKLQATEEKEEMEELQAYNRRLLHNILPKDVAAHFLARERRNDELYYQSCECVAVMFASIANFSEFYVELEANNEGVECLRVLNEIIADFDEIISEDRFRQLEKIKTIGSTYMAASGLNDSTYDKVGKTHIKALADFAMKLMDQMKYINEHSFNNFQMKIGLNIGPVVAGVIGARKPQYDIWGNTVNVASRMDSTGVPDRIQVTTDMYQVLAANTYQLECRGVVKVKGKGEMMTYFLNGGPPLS
# UniProt P35348, sequence (whole entry, looked up): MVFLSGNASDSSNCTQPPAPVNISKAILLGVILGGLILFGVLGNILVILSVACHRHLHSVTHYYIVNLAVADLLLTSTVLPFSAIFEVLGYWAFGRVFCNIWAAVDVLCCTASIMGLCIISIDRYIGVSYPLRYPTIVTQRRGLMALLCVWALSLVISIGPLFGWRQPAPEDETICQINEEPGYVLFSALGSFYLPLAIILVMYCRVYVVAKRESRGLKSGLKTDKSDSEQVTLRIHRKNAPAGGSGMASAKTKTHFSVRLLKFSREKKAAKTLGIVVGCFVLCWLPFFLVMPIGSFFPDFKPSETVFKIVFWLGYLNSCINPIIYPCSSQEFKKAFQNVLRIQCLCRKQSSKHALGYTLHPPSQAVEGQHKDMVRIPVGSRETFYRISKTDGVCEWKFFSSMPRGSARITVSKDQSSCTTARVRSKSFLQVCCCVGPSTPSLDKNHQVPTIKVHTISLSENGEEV
SMILES,target,assay,test system,setting,quantity,value
O=C1N[C@@H](Cc2ccccc2)C(=O)N2CCC[C@@H]2C(=O)N[C@@H](Cc2ccccc2)C(=O)N[C@H]1Cc1c[nH]c2ccccc12,MOR opioid receptor,binding,,,Ki,619 ± 87 nM
O=C(NC1CCN(CCc2c[nH]c3ccccc23)CC1)c1ccccc1,"ADRA1A (Homo sapiens, UniProt P35348)",binding,,,Ki,611 nM
C#CCN(C)Cc1cc2cc(OCCCN3CCCCC3)ccc2n1C,sigma 1 receptor,agonist,,,Ki,65.2 nM
O=C(OCC[18F])C1C2CCC(CC1c1ccc(/C=C\I)cc1)N2 (stereo not shown),SERT,HRRT PET,"awake rhesus monkey, cerebellum",,time to peak uptake,35 min
CN(C[C@H](O)[C@@H](O)[C@H](O)[C@H](O)CO)C(=O)c1ccc(CN(Cc2ccccn2)Cc2ccccn2)nc1,blaNDM-1,,,,Ki,310000 nM
CC(C)[C@H](NC(=O)[C@@H]1CCCN1C(=O)[C@@H](N)CCCCN)C(=O)N[C@@H](CCC(=O)O)C(=O)N[C@H](CN[C@@H](CCCNC(=N)N)C(=O)N[C@@H](CCC(N)=O)C(=O)N[C@H](C(=O)O)[C@@H](C)O)Cc1ccccc1,"Aspartic protease PM4 (Plasmodium vivax, UniProt O60989)",,,,Ki,14 ± 2 nM
"COC(=O)C1C(OC(c2ccc(Cl)cc2)c2ccc(Cl)cc2)CC2CCC1N2C (single isomer, unassigned)",norepinephrine transporter,,,,Ki,2150 ± 325 nM
O=C(O)[C@H]1CS[C@@H]2CS[C@@H](CS)N12,"VIM-2 (Escherichia coli, UniProt Q5U7L7)",inhibitor,,,Ki,3200 ± 400 nM
CC[C@H](C)[C@@H]1NC(=O)[C@H](Cc2c[nH]c3ccccc23)NC(=O)[C@H](CCCCCC(=O)NO)NC(=O)[C@H]2CCCCN2C1=O,"Histone deacetylase 3, with NCoR2 DAD domain (HDAC3, Homo sapiens, UniProt O15379)","enzyme activity, inhibitor",,added: NCoR2 DAD domain,Ki,~0.04 nM
CC1(C)S[C@@H]2CS[C@@H](CS)N2[C@H]1C(=O)O,blaNDM-1,inhibitor,,,Ki,12000 ± 1000 nM
CC(C)C[C@H](NC(=O)[C@@H]1CCCN1C(=O)[C@@H](N)CCCCN)C(=O)N[C@@H](CCC(=O)O)C(=O)N[C@H](CN[C@@H](Cc1ccccc1)C(=O)N[C@@H](CCCNC(=N)N)C(=O)N[C@H](C(=O)O)C(C)C)Cc1ccccc1,"Plasmepsin IV (PMIV, Plasmodium falciparum 3D7, UniProt Q8IM16)",,,,Ki,0.09 ± 0.01 nM
N[C@H](Cc1ccccc1)P(=O)(O)O,phenylalanine ammonia-lyase (maize),,,,Ki,11600 nM
CCCC[C@@H](C(=O)N[C@@H](CC(=O)O)C(=O)N[C@@H](Cc1ccccc1)C(N)=O)N(C)C(=O)[C@@H](Cc1c[nH]c2ccccc12)NC(=O)CNC(=O)[C@@H](Cc1ccccc1)NC(=O)[C@@H](N)Cc1ccc(O)cc1,µ-opioid receptor,binding,,,Ki,5.7 nM
Nc1ccccc1C(=O)O[C@H]1[C@@H](O)[C@H](n2cnc3c(=O)[nH]cnc32)O[C@@H]1COP(=O)(O)O,"ADCY5 (Canis lupus, UniProt P30803)","enzyme activity, inhibitor",Sf9 membranes,added: 5 mM MnCl2 and 100 µM forskolin,Ki,4300 ± 600 nM
C=CC(=O)N1CCC[C@@H](n2nc(-c3cn(C)c4ccccc34)c3c(N)ncnc32)C1,"EGFR (Homo sapiens, UniProt P00533, L858R)",,,,Ki,19 ± 3.1 nM
CCN1CCCC1CNC(=O)c1cc(Br)cc(OC)c1OC (stereo not shown) [carbon-11 labelled],dopamine D2short receptor,,,added: [3H]spiperone,Ki,1.6 nM

# For quick reference, copied from above:
SMILES,target,assay,test system,setting,quantity,value
CCCC[C@@H](C(=O)N[C@@H](CC(=O)O)C(=O)N[C@@H](Cc1ccccc1)C(N)=O)N(C)C(=O)[C@@H](Cc1c[nH]c2ccccc12)NC(=O)CNC(=O)[C@@H](Cc1ccccc1)NC(=O)[C@@H](N)Cc1ccc(O)cc1,µ-opioid receptor,binding,,,Ki,5.7 nM
Nc1ccccc1C(=O)O[C@H]1[C@@H](O)[C@H](n2cnc3c(=O)[nH]cnc32)O[C@@H]1COP(=O)(O)O,"ADCY5 (Canis lupus, UniProt P30803)","enzyme activity, inhibitor",Sf9 membranes,added: 5 mM MnCl2 and 100 µM forskolin,Ki,4300 ± 600 nM
